Assay results from different studies.
Compare with care: the assays were run in different laboratories. “And” joins repeats or separate records; there may be more than shown. ± gives the spread as reported.
ZBTB11/CRBN: ZBTB11/CRBN (Homo sapiens, UniProt O95625+Q96SW2)
PAK3: Serine/threonine-protein kinase PAK 3 (PAK3, Homo sapiens, UniProt O75914)
TOP2A: DNA topoisomerase 2-alpha (TOP2A, Homo sapiens, UniProt P11388)
T1: riboswitch RNA yjdF aptamer domain (Bacillus subtilis); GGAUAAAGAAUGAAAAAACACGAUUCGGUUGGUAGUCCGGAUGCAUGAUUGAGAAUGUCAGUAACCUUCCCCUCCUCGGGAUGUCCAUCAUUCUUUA

| SMILES | tested on | assay | system | setting | how to read | quantity | value |
| --- | --- | --- | --- | --- | --- | --- | --- |
| N=C(N)Nc1nc2ccccc2[nH]1 | HVCN1 (Homo sapiens, UniProt Q96D96, F150W) | proton current, inhibitor, inside-out patch clamp |  |  |  | Hill coefficient | 0.92 ± 0.03 |
| O=C(O)CCC(=O)N1CCc2ccccc21 | Ubiquitin carboxyl-terminal hydrolase 39, ZnF-UBD domain (Homo sapiens, UniProt Q53GS9) |  |  |  |  | Kd | > 1000 µM |
| CCC(C)(NCCc1ccc(Cl)c(Cl)c1)c1cccc(NC2=CC(=O)N(C3CCC(=O)NC3=O)C2=O)c1 (centres unmarked) | ZBTB11/CRBN | protein degradation, degrader, HiBiT luminescence | MOLT-4 |  |  | Dmax | 60% |
| CC[C@@H]1[C@H](F)C(=O)N[C@@H]1COc1nccc2cc(C(N)=O)c(OC)cc12 | MAP4K5 (Homo sapiens, UniProt Q9Y4K4) | ATP-site probe binding, ActivX profiling, refers to: KHS1 | THP-1 cell lysate | 0.04 mM, Lys1 site |  | inhibition | -0.0349% |
| O=C(NC1CCC1)c1ccc2nc(-c3cccc(NS(=O)(=O)NCCN4CCCCC4)c3)cn2c1 | TTK (Homo sapiens, UniProt P33981) | enzyme activity |  | 10 µM |  | remaining activity | 98% |
| C=CC(=O)N1CCC(COCC(=O)N2CCN(c3nc(-c4cnc(N)nc4C(F)F)nc(N4CCOC[C@@H]4C)n3)CC2)CC1 | PAK3 | KINOMEscan |  | 1 µM |  | remaining binding | 83% |
| Nc1ncnc2c1ncn2[C@@H]1O[C@H](COP(=O)(O)CP(=O)(O)OP(=O)(O)O)[C@@H](O)[C@H]1O | P2X purinoceptor 1 (P2RX1, Homo sapiens, UniProt P51575, K215A) | calcium influx |  | 1 µM | relative to: ionomycin response | calcium influx | 97.6% and 92.5% and 67.8% |
| CC(=C/C(=O)O)/C=C/C=C(\C)C1C=C2C(C)(C)CCCC2(C)O1 (centres unmarked) | Rhodopsin (RHO, Homo sapiens, UniProt P08100, E181K) | ER retention, immunostaining co-localization, refers to: opsin with calnexin | COS-7 transfected E181K | 5.00 µM |  | Pearson correlation coefficient | 0.59 |
| Nc1nc2c(ncn2[C@@H]2O[C@H](COP(=O)(O)O)[C@@H](O)[C@H]2O)c(=O)[nH]1 | GUK1 (Homo sapiens, UniProt Q16774, Y81A) | enzyme activity, NADH-coupled |  | 250 µM |  | reaction rate | 2.12 s⁻¹ and 2.09 s⁻¹ and 2.77 s⁻¹ |
| Cc1cc2nc3[nH]c(=O)[nH]c(=O)c3nc2cc1C | T1, riboswitch RNA yjdF aptamer domain (Bacillus subtilis) | fluorescence titration |  | together with: 380 nM lumichrome |  | Kd | 0.03 µM |
| O=c1cc(-c2ccccc2)nc2cc(-c3ccco3)[nH]n12 | BLVRB (Homo sapiens, UniProt P30043) | binding |  |  |  | koff | 0.0308 s⁻¹ |
| Nc1ncnc2c1ncn2[C@@H]1O[C@H](C[C@@H](N)CC[C@H](N)C(=O)O)[C@@H](O)[C@H]1O | O-methyltransferase (Sorghum bicolor, UniProt A0A1B6PFV1) |  |  | concentration not given, together with: PTR+ |  | ΔG of binding | -6.76 kcal/mol |
| Cc1nc(CSc2nc(SCc3ccc(C(C)C)cc3)nc(=O)[nH]2)cs1 | TOP2A | decatenation |  | 7.8 µM, replicate 1 |  | decatenated DNA | 55.8% |
| N#Cc1ccc2c(-c3ccncc3)c(-c3ccc(F)cc3)nn2c1 | Negative regulator of the PHO system (PHO85, Candida albicans, UniProt Q9HGY5) | kinase binding, competitor, MIB/MS competition, refers to: PHO85 | Candida albicans cell lysate | 100 nM | relative to: DMSO | log2 fold change | 0.219 |
| C#Cc1cc(-c2cc(Nc3nc(N[C@@H](C)c4ccc(F)cn4)ncc3Cl)n[nH]2)ccc1C=O | PAK3 | enzyme activity, inhibitor |  | 0.2 µM |  | inhibition | 2.6% |
| O=c1nc(SCc2cc(F)cc(C(F)(F)F)c2)nc(SCc2csc3ccc(Cl)cc23)[nH]1 | TOP2A | DNA cleavage |  | 31.25 µM, replicate 1 |  | linear DNA | 3.64% |
| CC(O)(CC(=O)O)CC(=O)O |  | binding, equilibrium dialysis LC-MS |  | 5 µM, thermostabilized A2AR-BRIL construct | relative to: no-protein control, direction not given | z-scored log2 fold change | 0.301 |
| [O-][S+]1CCCCS1 (centres unmarked) | SOD1 (Homo sapiens, UniProt P00441, G94A) | intact protein LC-MS | SOD1 G93A transgenic mice, whole blood | oral, 150 mg/kg, 1 h, mean of two mice |  | target engagement | 25 % cross-linked dimer |

| SMILES | tested on | assay | system | setting | how to read | quantity | value |
| --- | --- | --- | --- | --- | --- | --- | --- |
| c1ccc(C(NCc2cccnc2)(c2ccccc2)c2ccccc2)cc1 | KCNQ1 (Homo sapiens, UniProt P51787) | ion current, inhibitor, whole-cell patch clamp | tsA201 | tail current, leak-subtracted |  | Hill coefficient | 0.86 |
| CC(C)CC[C@@H](O)[C@@H](C)[C@H]1CC[C@H]2[C@@H]3CC=C4C[C@@H](O)CC[C@]4(C)[C@H]3CC[C@]12C | CYP11A1 (Homo sapiens, UniProt P05108) | substrate binding saturation |  | together with: adrenodoxin 40-fold excess | relative to: without adrenodoxin | ΔAmax increase | ~1.3 fold |
| O=C(CCCCCCC(=O)Nc1ccccc1)NO | HDAC8 (Homo sapiens, UniProt Q9BY41) | ITC | Hepes buffer | concentration not given, pH 7.5 |  | binding stoichiometry | 0.9 |
| CC(=O)N[C@H](C(=O)N1C[C@H](O)C[C@H]1C(=O)NCc1ccc(-c2scnc2C)cc1)C(C)(C)SCCCCCCNC(=O)C[C@@H]1N=C(c2ccc(Cl)cc2)c2c(sc(C)c2C)-n2c(C)nnc21 | Bromodomain-containing protein 3, BD2 (BRD3, Homo sapiens, UniProt Q15059) | binding, ITC |  | 25 °C, compound in cell, protein in syringe |  | ΔG | -10.1 ± 0.1 kcal/mol |
| NCCCC(=O)O | SLC6A6 (Homo sapiens, UniProt P31641, G62A) | binding, microscale thermophoresis |  | 250 µM, room temperature, together with: 50 nM labelled protein | higher = more binding | normalised MST signal | 0.0432 |
| N=c1c[n+](N2CCOCC2)[n-]o1 | SIRT6 (Homo sapiens, UniProt Q8N6T7) | covalent inactivator, HPLC demyristoylase |  | pH 7.5, 37 °C, peroxynitrite donor, time-dependent, together with: NAD+ |  | KI | 3.1 ± 0.9 µM |
| NS(=O)(=O)c1nnc(NC(=O)CCC2CC3CCC2C3)s1 (centres unmarked) | Alpha-carbonic anhydrase (Enterococcus faecium, UniProt Q3XYE8) | CO2 hydration, inhibitor, stopped-flow kinetics |  |  |  | Ki | 0.0428 µM |
| CC(=O)Nc1ncc([N+](=O)[O-])s1 | GSK3A (Homo sapiens, UniProt P49840) | kinase activity, inhibitor, Z'-LYTE |  |  |  | Hill slope | 1.26 |
| Nc1nc2c(ncn2[C@@H]2O[C@@H]3COP(=O)(O)O[C@H]3[C@H]2O)c(=O)[nH]1 | Cone cGMP-gated channel (Morone saxatilis, UniProt Q3I0N1+Q3I0N2) | channel current, agonist, suction electrode | cone outer segments | single cone shown, together with: 20 µM Ca2+ |  | Hill coefficient | 2.15 |
| [H]/N=C(/N)NCC(=O)O | SLC6A6 (Homo sapiens, UniProt P31641, L306A) | binding, microscale thermophoresis |  | 244 nM, room temperature, together with: 50 nM labelled protein | higher = more binding | normalised MST signal | 0.0483 |
| CCC(C)(NCCc1cccc(Cl)c1)c1cccc(NC2=CC(=O)N(C3CCC(=O)NC3=O)C2=O)c1 (centres unmarked) | ZBTB11/CRBN | protein degradation, degrader, HiBiT luminescence | MOLT-4 |  |  | Dmax | 32% |
| CC[C@H](C)[C@@H]1NC(=O)[C@H](C)NC(=O)[C@H]([C@@H](C)CC)NC(=O)[C@H](CCC(N)=O)NC(=O)[C@H](C)NC(=O)[C@H](CCCNC(=N)N)NC(=O)[C@H](C(C)C)NC(=O)[C@H](CC(C)C)NC(=O)[C@H](CCC(=O)O)NC(=O)[C@H](CCCNC(=N)N)NC(=O)CNC(=O)[C@@H](NC(=O)[C@H](CC(C)C)NC(=O)[C@H](CCCCN)NC(=O)[C@@H](NC(=O)[C@@H](NC(=O)[C@H](CCC(=O)O)NC(=O)[C@H](CCC(=O)O)NC(=O)[C@H](CCSC)NC(=O)[C@H](Cc2c[nH]c3ccccc23)NC(=O)[C@H](CO)NC(=O)[C@@H](N)CC(=O)O)C(C)C)[C@@H](C)CC)CSSC[C@@H]2NC(=O)[C@@H](NC(=O)[C@H](CCCCN)NC(=O)[C@H](CC(N)=O)NC(=O)[C@H](C)NC(=O)[C@H](CC(C)C)NC(=O)[C@H](C)NC(=O)[C@H](CO)NC(=O)[C@H](Cc3ccc(O)cc3)NC(=O)[C@H](CC(C)C)NC(=O)[C@H](CCC(N)=O)NC(=O)c3ccc(-c4c5ccc(=[N+](C)C)cc-5oc5cc(N(C)C)ccc45)c(C(=O)[O-])c3)CSSC[C@H](NC(=O)CNC(=O)[C@H](C(C)C)NC(=O)[C@H](Cc3c[nH]cn3)NC2=O)C(=O)N[C@@H]([C@@H](C)O)C(=O)N[C@@H](CCCCN)C(=O)N[C@@H](CCCNC(=N)N)C(=O)N[C@@H](CO)C(=O)N[C@@H](CC(C)C)C(=O)N[C@@H](C)C(=O)N[C@@H](CCCNC(=N)N)C(=O)N[C@@H](Cc2ccccc2)C(=O)N[C@H](C(=O)O)CSSC[C@@H](C(=O)NCC(=O)N[C@@H](CCSC)C(=O)N[C@@H](CO)C(=O)N[C@H](C(=O)N[C@@H](Cc2c[nH]c3ccccc23)C(=O)N[C@@H](CO)C(=O)O)[C@@H](C)O)NC1=O | Relaxin receptor 1 (RXFP1, Homo sapiens, UniProt Q9HBX9, F76A/Y80A) | dissociation, NanoBRET |  | together with: relaxin 10 µM |  | koff slow phase | 0.000837 s⁻¹ |
| N#Cc1ccc2[nH]cc(CCCCN3CCN(c4ccc5oc(C(N)=O)cc5c4)CC3)c2c1 | SLC6A4 (Homo sapiens, UniProt P31645, P561G) | [3H]5-HT uptake, inhibitor | COS-7 |  |  | Hill coefficient | 1.44 ± 0.28 |
| O=C(O)c1ccc(Nc2ncc3c(n2)-c2ccc(Cl)cc2C(c2c(F)cccc2F)=NC3)cc1 | human Tie2(h) | kinase activity |  | 1 µM |  | remaining activity | 51% |
| O=C(COP(=O)(O)O)[C@@H](O)[C@H](O)[C@H](O)COP(=O)(O)O | Heterogeneous nuclear ribonucleoprotein U-like protein 2 (Homo sapiens, UniProt Q1KMD3) | thermal proteome profiling, refers to: HNRNPUL2 | HepG2 cell lysate | concentration not given, 57 over 37 °C, mean | relative to: compound over control | thermal stability ratio | 0.659 |
| CCCCc1nnc2c(N)nc3ccccc3n12 | TLR7 (Homo sapiens, UniProt Q9NYK1) | reporter gene, agonist, NF-κB reporter | HEK-Blue TLR7 |  |  | EC50 | inactive |
| O=C(C[C@@H](C(F)F)n1ccc(F)n1)N1CCC(O)(Cn2cnc3c(cnn3-c3ccc(F)cc3)c2=O)CC1 | USP7 (Homo sapiens, UniProt Q93009, V517I) | isothermal titration calorimetry |  | concentration not given, USP7 V517I |  | binding enthalpy | -18.7 ± 0.167 kcal/mol |

Excerpt of the above:
| SMILES | tested on | assay | system | setting | how to read | quantity | value |
| --- | --- | --- | --- | --- | --- | --- | --- |
| O=C(O)CCC(=O)N1CCc2ccccc21 | Ubiquitin carboxyl-terminal hydrolase 39, ZnF-UBD domain (Homo sapiens, UniProt Q53GS9) |  |  |  |  | Kd | > 1000 µM |
| CCC(C)(NCCc1ccc(Cl)c(Cl)c1)c1cccc(NC2=CC(=O)N(C3CCC(=O)NC3=O)C2=O)c1 (centres unmarked) | ZBTB11/CRBN | protein degradation, degrader, HiBiT luminescence | MOLT-4 |  |  | Dmax | 60% |
| CC[C@@H]1[C@H](F)C(=O)N[C@@H]1COc1nccc2cc(C(N)=O)c(OC)cc12 | MAP4K5 (Homo sapiens, UniProt Q9Y4K4) | ATP-site probe binding, ActivX profiling, refers to: KHS1 | THP-1 cell lysate | 0.04 mM, Lys1 site |  | inhibition | -0.0349% |
| O=C(NC1CCC1)c1ccc2nc(-c3cccc(NS(=O)(=O)NCCN4CCCCC4)c3)cn2c1 | TTK (Homo sapiens, UniProt P33981) | enzyme activity |  | 10 µM |  | remaining activity | 98% |
